Experimental data pooled from the literature.
Lines come from different studies, so protocols differ. ± gives the spread as reported.

The uptake half-time of `N[C@@H](CC(=O)O)C(=O)O` is reported as 6.4 h (Escherichia coli; MG1655, M9 medium; 1 mM, 1 mM equimolar amino acid mixture).
`CN(Cc1cnc2nc(N)nc(N)c2n1)c1ccc(C(=O)N[C@@H](CCC(=O)O)C(=O)O)cc1` gave an intracellular accumulation of 6.68 µM (Escherichia coli; LC-MS/MS; BW25113; 100 µM, 10 min, 37 °C).
Under “patients with QTcB above threshold”, `Cc1cc(Nc2ccc(S(F)(F)(F)(F)F)cc2)n2nc(C(C)(F)F)nc2n1` is recorded as 0% (Plasmodium vivax; 12-lead Holter ECG; human malaria patients; oral, 800 mg, QTc above 500 ms).
`NC(=O)CC[C@H](N)C(=O)O` has an uptake half-time of 11.3 h (Escherichia coli; MG1655, M9 medium; 1 mM, 1 mM equimolar amino acid mixture).
For `Cc1cc(N)c2c(OCC(C)(C)C(=O)NC(C)C)cccc2n1`, “mean revertant colonies” read 70 colonies/plate (Salmonella typhimurium; reverse mutation, plate incorporation; TA100; 100 µg/plate, without S9).
For `C[C@@H](O)[C@H](N)C(=O)O`, the uptake half-time was over 28 h (Escherichia coli; MG1655, M9 medium; 1 mM, 1 mM equimolar amino acid mixture).
`CC[C@H](CO)N(CCN(N=O)[C@H](CC)CO)N=O` — result for “revertant colonies per plate”: 133 ± 20 (Escherichia coli; mutagenicity, Ames plate incorporation; WP2 uvrA pKM101; 500 µg/plate, without S9, methanol).
`O=C(O)CCCOc1ccc(F)cc1-c1cc(-c2ccccc2C(F)(F)F)n(-c2ccccc2)n1` — result for mutagenicity: “negative” (Escherichia coli; Ames reverse mutation test; WP2 uvrA; concentration not given, without S9).
`O=C(O)c1cn(C2CC2)c2cc(N3CCNCC3)c(F)cc2c1=O` has an intracellular accumulation of 50 µM (Escherichia coli; LC-MS/MS; BW25113; 100 µM, 10 min, 37 °C).

Some of these lines once more:
`NC(=O)CC[C@H](N)C(=O)O` has an uptake half-time of 11.3 h (Escherichia coli; MG1655, M9 medium; 1 mM, 1 mM equimolar amino acid mixture).
